Measured values of several laboratories.
Protocols differ between the studies behind these lines.

Compound	assay	test system	setting	scale	endpoint	value
Cc1cc(-c2nnc(N)nc2-c2ccc(F)cc2)cc(Cl)n1	measured: Fatigue	other solid tumours, IO-naive	oral, 100 mg once daily, all grades		patients with treatment-related AE	47.4%
NC(=O)N1c2ccccc2C=Cc2ccccc21		male patients	oral, dose not given, on-treatment adverse events		patients with Lymphadenopathy	7%
O=C(Nc1nc2cccc(-c3ccc(CN4CCS(=O)(=O)CC4)cc3)n2n1)C1CC1		rheumatoid arthritis patients	oral, 100 mg twice daily, 4 weeks, TEAE regardless of relatedness		patients with Hypercholesterolemia	0%
Cc1cc(NC2CCN(C(=O)OC3CCN(C(=O)/C=C/CN(C)C)C3)CC2)n2ncc(C(C)C)c2n1 (stereo not shown)	Phase I dose escalation CTCAE v4.0, measured: blood creatinine increased	patients with advanced solid tumours	dose not given, TIW dosing any grade		patients with adverse event	18%
CCOc1c([C@H](C)n2nc(C)c3c(N)ncnc32)cc(Cl)c(F)c1[C@@H]1CNC(=O)C1	measured: QTcF change above 60 ms	previously treated B-cell malignancy	oral, 20 mg once daily, overall population	baseline: baseline	patients	2.9%
COc1ccc([C@@H](O)c2cc(-c3ncnc4cc(N5CCOCC5)ccc34)c(F)cc2Cl)nn1		locally advanced rectal cancer patients	100 mg, drug-related adverse events, added: capecitabine and radiotherapy		patients with anemia	17%
CNC(=O)c1cc(Oc2ccc(NC(=O)Nc3cc(C(C)(C)C)nn3-c3ccc4ncccc4c3)c(F)c2)ccn1		patients	oral, dose not given, cycles 1 and 2, High Cmax subgroup		patients with grade 3 cardiac disorders	6%
C[C@@H](Nc1cc(F)cc(F)c1)c1cc(C(=O)N(C)C)cc2c(=O)cc(N3CCOCC3)oc12	CTCAE v4, measured: autoimmune colitis	patients with advanced solid tumours	oral, dose not given, phase I dose expansion		patients discontinuing for AE	0%
CNC(=O)c1ccc(-c2cnc3ncc(Cc4ccc5ncccc5c4)n3n2)cc1F	measured: Hypoalbuminemia, all grades	cancer patients	oral, 600 mg twice daily, other expansion cohort, any causality		patients with adverse event	6%
COc1cc(Nc2ncc3c(n2)-c2ccc(Cl)cc2C(c2c(F)cccc2OC)=NC3)ccc1C(=O)O	measured: Dysgeusia, all grades	cancer patients, phase 1/2	oral, dose not given, added: pembrolizumab		patients with adverse event	13%

Excerpt of the above:
Compound	assay	test system	setting	scale	endpoint	value
CNC(=O)c1ccc(-c2cnc3ncc(Cc4ccc5ncccc5c4)n3n2)cc1F	measured: Hypoalbuminemia, all grades	cancer patients	oral, 600 mg twice daily, other expansion cohort, any causality		patients with adverse event	6%
